Assay results collected from several papers.
Numbers after ± are the reported error.
Organism: SARS-CoV-2

| Substance | effect on | technique | cells | strain | time | setting | EC50 |
| --- | --- | --- | --- | --- | --- | --- | --- |
| CC(C)[C@H](NC(=O)c1ccccc1NC(=O)c1ccc(O)cc1)C(=O)N[C@H](CO)C(C)C | plaque formation | plaque reduction | Vero E6 | – | 72 h | – | 25800 ± 5700 nM |
| CC(C)(C)NCc1ccc(Nc2ccnc3cc(Cl)ccc23)cc1O | viral replication | – | Huh-7-ACE2 | USA-WA1/2020 | 24 h | – | 370 nM |
| CCC(CC)COC(=O)[C@H](C)N[P@](=O)(OC[C@H]1O[C@@](C#N)(c2ccc3c(N)ncnn23)[C@H](O)[C@@H]1O)Oc1ccccc1 | viral replication | – | Calu-3 | – | 48 h | – | 80 ± 20 nM |
| CSc1ccc(N(Cc2cc(Cl)cs2)C(=O)Cc2cncc3ccccc23)cc1 | viral replication | – | Calu-3 | Omicron BA.2 | – | – | 3500 nM |
| COc1ccc2cc1Oc1ccc(cc1)C[C@H]1c3cc(c(OC)cc3CCN1C)Oc1c(OC)c(OC)cc3c1[C@H](C2)N(C)CC3 | viral replication | – | Huh-7-ACE2 | USA-WA1/2020 | 24 h | – | 640 nM |
| Cn1c(C(=O)Nc2ccc(Cl)cc2)cc2c(=O)n3ccccc3nc21 | viral replication | – | Vero E6 | – | – | – | 109 nM |
| CCCCCCC(C)(C)c1cc(O)c([C@H]2CC(=O)[C@H]3C[C@@H]2C3(C)C)c(OC(=O)/C=C/C(=O)O)c1 | viral replication | GFP plate reader screen | – | – | – | cell-based | > 100000 nM |
| C#Cc1cccc(Nc2ncnc3cc(OCCOC)c(OCCOC)cc23)c1 | viral replication | – | Vero E6 | USA-WA1/2020 | – | – | > 20000 nM |
| O[C@](Cn1cncn1)(Cn1cnc(/C=C\c2ccc(OCC(F)(F)C(F)F)cc2)n1)c1ccc(F)cc1F | viral replication | GFP plate reader screen | – | BetaCov/Belgium/GHB-03021/2020 | – | cell-based | > 100000 nM |
| Nc1ncnc2c1ncn2[C@@H]1O[C@H](CSCc2ccc3ccccc3c2)[C@@H](O)[C@H]1O | viral replication | N protein immunofluorescence | Calu-3 | – | 24 h | – | > 200000 nM |
| NC(=O)c1nnn([C@@H]2C(F)=C(CO)[C@@H](O)[C@H]2O)c1N | viral replication | spike protein immunostaining | Vero | – | 48 h | – | > 100000 nM |
| CC(C)(C)[C@H](NC(=O)C(F)(F)F)C(=O)N1C[C@H]2[C@@H]([C@H]1C(=O)N[C@H](C#N)C[C@@H]1CCNC1=O)C2(C)C | viral replication | cell-based | – | Washington | – | – | 80 ± 70 nM |
| CC(C)=CCC/C(C)=C/Cc1c(O)cc2oc3c(O)cccc3c(=O)c2c1O | viral replication | – | Calu-3 | mNeonGreen reporter | – | – | 27900 ± 1300 nM |
| CC(C)(C)[C@H](NC(=O)C(F)(F)F)C(=O)N1C[C@@H]2CCC[C@@H]2[C@H]1C(=O)N[C@@H](C[C@@H]1CCNC1=O)C(=O)c1nc2cc(F)ccc2s1 | viral replication | – | Vero C1008 | JPN/TY/WK-521 (ancestral Wuhan) | – | – | 30 nM |
| C[C@H](Cc1ccc(O)c(O)c1)[C@@H](C)Cc1ccc(O)c(O)c1 | viral replication | high-content imaging screen | – | – | – | cell-based | > 100000 nM |
| CCN1CCN(C(C(=O)O)c2c[nH]c3ccc(NC(=O)CCC(=O)O)cc23)CC1 (stereo not drawn) | plaque formation | plaque reduction | Vero E6 | – | 72 h | – | > 50000 nM |
| O=C[C@H](C[C@@H]1CCNC1=O)NC(=O)[C@H](CC1CCCCC1)NC(=O)c1cc2ccccc2[nH]1 | viral replication | – | Vero E6 | 2019-nCoV-WIV04 | – | 30% human serum | 2570 nM |
| CCC(CC)COC(=O)[C@H](C)N[P@](=O)(OC[C@H]1O[C@@](C#N)(c2ccc3c(N)ncnn23)[C@H](O)[C@@H]1O)Oc1ccccc1 | viral replication | qRT-PCR of viral RNA | Vero | Washington | – | – | 1800 ± 100 nM |
| C1=C(c2ccc(CN3CCCCC3)cc2)N2CCN=C2c2ccccc21 | viral replication | – | 293T-ACE2 | USA-WA1/2020 | 24 h | – | 120 nM |
| COc1ccccc1OCCNCC(O)COc1cccc2[nH]c3ccccc3c12 (stereo not drawn) | viral replication | GFP plate reader screen | – | – | – | cell-based | 15500 nM |
| N=C(N)Nc1ccc(C(=O)Oc2ccc3cc(C(=N)N)ccc3c2)cc1 | viral replication | – | HEK293 ACE2/TMPRSS2 | – | – | fixed 7:1 molar combination | 460 nM |
| CCOc1ccccc1NC(=O)C(=O)NCC(c1cccnc1)N1CCN(c2ccccc2)CC1 (stereo not drawn) | plaque formation | plaque reduction | Vero E6 | – | 72 h | – | 12500 ± 2100 nM |
| COCCn1c2c([n+](Cc3cnccn3)c1C)C(=O)c1ccccc1C2=O | virus-induced cytopathic effect | – | Vero E6 | USA-WA1/2020 | 72 h | – | > 20000 nM |
| O=c1nc[nH]c2c1ncn2[C@H]1CC[C@@H](CO)O1 | viral RNA copies | – | Vero C1008 | VOC-202012/01 | 48 h | 50% decrease endpoint | 3470 ± 150 nM |
| COc1ccc(-c2ocnc2C(=O)NCCCn2cncn2)cc1Cl | plaque formation | plaque reduction | Vero E6 | – | 72 h | – | 11200 ± 5500 nM |
| Cc1ccc(CCCO)c(NCc2ccc3nc(NCCCN4CCOCC4)n(Cc4nc(C)ccc4O)c3c2)c1 | viral replication | GFP plate reader screen | – | BetaCov/Belgium/GHB-03021/2020 | – | cell-based | > 20000 nM |

| Substance | effect on | technique | cells | strain | time | setting | EC50 |
| --- | --- | --- | --- | --- | --- | --- | --- |
| CC(NC(=O)C(=O)NCCN1CCOCC1)C(c1cccs1)N1CCN(c2ccccc2)CC1 (stereo not drawn) | plaque formation | plaque reduction | Vero E6 | – | 72 h | – | > 50000 nM |
| CC(Cc1ccccc1)NCCC(c1ccccc1)c1ccccc1 (stereo not drawn) | viral replication | high-content imaging screen | – | – | – | cell-based | > 100000 nM |
| OCCN1CCN(CCC=C2c3ccccc3Sc3ccc(C(F)(F)F)cc32)CC1 | – | – | Vero C1008 | WIV04 | 24 h | – | 2950 nM |
| CCN(CCO)CCCC(C)Nc1ccnc2cc(Cl)ccc12 (stereo not drawn) | cytopathic effect | – | Vero C1008 | – | – | – | 5040 nM |
| Cc1c(S(=O)(=O)N2CCc3n[nH]cc3C2)cc(C(=O)NCc2c(F)cccc2N2CCCC2)n1C | viral replication | – | Huh7.5 | WA1/2020 | – | – | 44 nM |
| CN(C)c1ccc(N(Cc2cc(Cl)cs2)C(=O)Cc2cncc3cccc(O)c23)cc1 | – | nucleocapsid staining | Caco-2 | Omicron BA.5 | – | – | 60 ± 50 nM |
| COc1cc2c(cc1N1C[C@@H](C)N[C@@H](C)C1)N(C(=O)c1ccc(-c3ccc(-c4noc(C)n4)cc3C)cc1)CC2 | viral replication | – | 293T-ACE2 | USA-WA1/2020 | 24 h | – | 290 nM |
| O=C[C@H](C[C@@H]1CCNC1=O)NC(=O)[C@H](CC1CC1)N1C[C@@H](NC(=O)OCc2ccccc2)CCC1=O | viral replication | – | Vero C1008 | USA-WA1/2020 | – | – | ~38200 nM |
| calpain inhibitor III | viral replication | – | Huh-7-ACE2 | USA-WA1/2020 | – | – | 86 nM |
| O=c1c2ccccc2[se]n1-c1ccccc1 | viral replication | RT-qPCR | Vero | – | 48 h | – | 12000 nM |
| Cn1cnc(Cn2c(=O)[nH]/c(=N\c3cc4cn(C)nc4cc3Cl)n(Cc3cc(F)c(F)cc3F)c2=O)n1 | viral replication | – | Vero C1008 | WT replicon ΔS-E-M | 24 h | – | 15 nM |
| C=C1CC[C@@H]2[C@](C)(CO)[C@H](O)CC[C@@]2(C)[C@@H]1C/C=C1/C(=O)OC[C@H]1O | – | plaque reduction | Vero E6 | B.3 | 72 h | – | 1400 nM |
| CC(C)(C)[C@H](NC(=O)C(F)(F)F)C(=O)N1C[C@H]2[C@@H]([C@H]1C(=O)N[C@H](C#N)C[C@@H]1CCNC1=O)C2(C)C | viral replication | – | Calu-3 | Omicron BA.1 | – | – | 900 nM |
| CCOC(=O)C1=C(CN2CCCN(C(=O)OC(C)(C)C)CC2)NC(=O)NC1c1ccc(C)cc1 (stereo not drawn) | plaque formation | plaque reduction | Vero E6 | – | 72 h | – | 15200 ± 2500 nM |
| C=CC(=O)Nc1cc(Nc2nccc(-c3cn(C)c4ccccc34)n2)c(OC)cc1N(C)CCN(C)C | viral replication | high-content imaging screen | – | – | – | cell-based | > 100000 nM |
| O=C(O[C@@H]1O[C@@H]2COC(=O)c3cc(O)c(O)c(O)c3-c3c(cc(O)c(O)c3O)C(=O)O[C@H]([C@H]1O)[C@@H]2O)c1cc(O)c(O)c(O)c1 | viral replication | – | Vero | – | – | – | 130 nM |
| O=c1c(O)c(-c2cc(O)c(O)c(O)c2)oc2cc(O)cc(O)c12 | viral replication | – | Vero C1008 | – | 72 h | – | > 31200 nM |
| CC(C)CC(NC(=O)OCc1ccccc1)C(=O)NC(C(=O)NCC(=O)C=[N+]=[N-])C(C)C (stereo not drawn) | viral replication | – | 293T-ACE2 | USA-WA1/2020 | 24 h | – | 1.1 nM |
| O=[N+]([O-])c1cc(N2[C@@H]3CC[C@H]2COC3)ccc1NCc1ccc(CN2C[C@H](O)[C@@H](O)[C@H](O)[C@H]2CO)cc1 | viral replication | – | – | USA-WA1/2020 | – | – | > 25000 nM |
| N=C(N)c1ccc(C=C2c3ccccc3-c3ccccc32)cc1 | viral replication | GFP plate reader screen | – | – | – | cell-based | 3470 nM |
| Nc1ncnc2c1ncn2[C@@H]1C(F)=C(CO)[C@@H](O)[C@H]1O | viral replication | spike protein immunostaining | Vero | – | 48 h | – | > 23100 nM |
| CC(C)[C@H](NC(=O)c1ccccc1NC(=O)c1ccccc1)C(=O)N[C@H](CO)C(C)C | plaque formation | plaque reduction | Vero E6 | – | 72 h | – | 1300 ± 500 nM |
| Cn1cnc(Cn2c(=O)[nH]/c(=N\c3cc4cn(C)nc4cc3Cl)n(Cc3cc(F)c(F)cc3F)c2=O)n1 | viral replication | – | Vero C1008 | BA.5 | – | – | 140 nM |
| CCc1ccc(NC(=O)c2cc3c(=O)n4ccccc4nc3n2C)cc1 | viral replication | – | Vero E6 | – | – | – | 76.2 nM |
| COc1cccc2[nH]c(C(=O)N[C@@H](CC(C)C)C(=S)N[C@@H](C[C@@H]3CCNC3=O)C(=O)c3nc4ccccc4s3)cc12 | viral replication | RT-qPCR | VeroE6 | WK-521 | – | – | 2700 ± 150 nM |
